# Values quoted from earlier work, collected from citations in different studies.
# Protocols differ between the studies behind these lines.
Molecule,target or system,assay,test system,conditions,scale,endpoint,value
O=c1[nH]c(-c2ccc(-c3nnn[nH]3)cc2)ncc1O,influenza endonuclease,"enzyme activity, inhibitor",,,,IC50,0.15 µM
ClC1=C(Cl)[C@]2(Cl)[C@@H]3[C@@H]4C[C@@H]([C@H]5O[C@@H]45)[C@@H]3[C@@]1(Cl)C2(Cl)Cl,,,,,,logP,4.88
FHLRSRFAF,"HLA class I histocompatibility antigen, B alpha chain, allele B*39:01 (Homo sapiens, UniProt P01889)",peptide-MHC binding,peptide,,,IC50,0.001 µM
O=C(NCCN1CCCC1)c1cc(-c2ccc(CN3CCOCC3)cc2)nc2ccc(F)cc12,Plasmodium falciparum,,3D7 I183T mutant,,relative to: parental strain,IC50 fold increase,5 fold
CCc1c2c(nc3ccc(OC(=O)N4CCC(N5CCCCC5)CC4)cc13)-c1cc3c(c(=O)n1C2)COC(=O)[C@]3(O)CC,,,mouse LM2-4-luc tumour model,,,tolerability,not toxic
O=c1[nH]c(-c2cccc(-c3nnn[nH]3)c2)ncc1O,influenza endonuclease,"enzyme activity, inhibitor",,,,IC50,0.48 µM
Clc1ccc(C(c2ccc(Cl)cc2)C(Cl)Cl)cc1,,,,,,logP,5.39
O=NN1CCCC1,induced pluripotent stem cells,mutational fingerprint,,concentration not given,,T>A mutation frequency,increased

# Some of these lines once more:
Molecule,target or system,assay,test system,conditions,scale,endpoint,value
O=C(NCCN1CCCC1)c1cc(-c2ccc(CN3CCOCC3)cc2)nc2ccc(F)cc12,Plasmodium falciparum,,3D7 I183T mutant,,relative to: parental strain,IC50 fold increase,5 fold
